Assay results gathered from unrelated publications.
Lines come from different studies, so protocols differ. Several values in a cell are separate wells, animals, samples, runs or records.
Target: G protein-coupled receptor kinase 6 (GRK6, Homo sapiens, UniProt P43250)

Nc1ncc(-c2cc(-c3cnn(CC(F)(F)F)c3)ncc2F)nc1C(=O)NC1CNCC(F)C1 (stereo not shown) has a remaining activity of 92.1% (enzyme activity; 1 µM; reference: DMSO control).
COc1c(OCCCN2CCOCC2)ccc2c1N=C(NC(=O)c1cnc(N)nc1)N1CCN=C21 has a remaining activity of 101% (kinase activity, inhibitor; 1 µM; reference: untreated control).
CCn1cc(C(=O)O)c(=O)c2c(N)c(F)c(NC3CCCCC3)cc21 has an inhibition of 25.2% (kinase activity; 0.1 µM, together with: ATP at Km).
Cc1nc2c(F)cc(-c3nc(Nc4ccc(CNC(=O)CCCCCCC(=O)NO)cc4)ncc3F)cc2n1C(C)C gave an inhibition of 11% (enzyme activity, inhibitor; 1 µM).
With NC(=O)[C@@H](O)C[C@H]1CCc2sc3ncnc(O[C@H]4CC[C@H](N5CCOCC5)CC4)c3c21 the inhibition was -2% (enzyme activity, inhibitor; 10 µM).
CN1CCN(Cc2ccc(-c3ccc(CO[C@H]4CCC[C@@H]4NC(=O)c4cc(-c5cnn(C)c5)cnc4N)cc3)cc2)CC1 gave an inhibition of 6% (enzyme activity, inhibitor; 0.1 µM).
The inhibition of C=CC(=O)Nc1cccc(-c2cnc3[nH]cc(C(=O)NC(C)(C)C)c3n2)c1 is reported as 7% and 6% (kinase activity; 0.1 µM).
The remaining activity of O=C=[N][Ru-4]123([n]4c5ccc(O)cc5c5c6c(c7cc(F)c[n+]1c7c54)C(=O)NC6=O)[S+]1CC[S+]2CC[S+]3CC1 (stereo not shown) is reported as 53% (enzyme activity; 100 nM, human enzyme, together with: 10 µM ATP; reference: untreated).
C=CC(=O)N1Cc2nc(-c3cc(-c4cc(Cl)cnc4Cl)c(F)cc3F)n(-c3ccncn3)c2C1 has an inhibition of 2% (cell-free assay, inhibitor; 1 µM).
With COc1ccc(NC(=O)Nc2ccc3c(c2)C(=O)N(C(C)CO)CC(C)C(CN(C)Cc2ccc4c(c2)OCO4)O3)cc1 (stereo not shown) the remaining activity was 104% (kinase activity, KinaseProfiler; 0.03 µM, species human; reference: control).
The inhibition of NC(=O)C[C@H]1CCc2sc3ncnc(O[C@H]4CC[C@H](N5CCOCC5)CC4)c3c21 is reported as -4% (enzyme activity, inhibitor; 10 µM).
COCC12C(=O)NC3C4(C(OC)CC1O)C1CC5(O)C(OC)C(O)C(OC(C)=O)(C1C5OC(=O)c1ccccc1)C3(O)C(OC)C24 (stereo not shown) has a remaining activity of 79% and 90% (kinase activity, inhibitor, ProQinase kinase profiling; 25 µM; reference: control).
O=C(Cc1ccc(OCc2ccccc2)cc1)NC1(C(=O)O)CCN(C(=O)c2ccc(-c3cccc(Cl)c3)cc2)CC1: “activity vs control” 98% (enzyme activity, inhibitor; 10 µM).
With Cc1cccc(O[C@H]2CCC[C@@H](C(C)CNCc3ccncc3)C2)c1 (relative stereo) the inhibition was 0% (enzyme activity, inhibitor; 10 µM).
For CNC(=O)C[C@H](Cc1ccc(C#N)cc1)NC(=O)c1cc(-c2ccc(CN[C@H](C)c3ccc(C)cc3)o2)ccc1Cl, “activity vs control” read 98% (enzyme activity, inhibitor; 1 µM).
With CN1CC[C@@H](COc2cnc(C#N)cc2-c2ccn3nc(NC(=O)C4CC4)cc3c2)C1 the inhibition was -3% (enzyme activity, inhibitor; 1 µM).

For quick reference, copied from above:
The remaining activity of O=C=[N][Ru-4]123([n]4c5ccc(O)cc5c5c6c(c7cc(F)c[n+]1c7c54)C(=O)NC6=O)[S+]1CC[S+]2CC[S+]3CC1 (stereo not shown) is reported as 53% (enzyme activity; 100 nM, human enzyme, together with: 10 µM ATP; reference: untreated).
